Published values pooled from the literature.
Each line is one published result; not all experiments were run side by side. Values joined by “and” are separate records of one study, mostly repeats; a detail may differ.
UCHL1: Ubiquitin carboxyl-terminal hydrolase isozyme L1 (UCHL1, Homo sapiens, UniProt P09936)
Voltage-dependent P/Q-type calcium channel subunit alpha-1A: Voltage-dependent P/Q-type calcium channel subunit alpha-1A (Homo sapiens, UniProt O00555)

| SMILES | target or system | test | test system | setting | how to read | measurement | result |
| --- | --- | --- | --- | --- | --- | --- | --- |
| CC(=O)NCCc1ccc(C(=O)CCl)cc1 | UCHL1 | covalent, intact protein LC-MS | – | 12.5 µM | – | labelling | 29.5% |
| Br.CCCCCCn1c2c(c(=N)c3c1CCC3)CCC2 | Trypanosoma cruzi | reporter translation, Renilla luciferase mRNA translation | cell-free extract | 40 µM | relative to: DMSO | inhibition | 9% |
| Cc1cc(-c2ccnc3[nH]cc(F)c23)cc(F)c1[C@@]1(O)[C@H](C)CN(C2CCS(=O)(=O)CC2)C[C@@H]1C | Serine/threonine-protein kinase 38-like (STK38L, Homo sapiens, UniProt Q9Y2H1) | ATP probe binding, KiNativ, refers to: Lys2 site | HEK293T cell lysate | 0.1 µM | – | inhibition | 0.3% |
| CC[C@@H]1[C@H](F)C(=O)N[C@@H]1COc1nccc2cc(C(N)=O)c(OC)cc12 | Leucine-rich repeat serine/threonine-protein kinase 2 (LRRK2, Homo sapiens, UniProt Q5S007) | ATP-site probe binding, ActivX profiling | THP-1 cell lysate | 0.01 mM, Lys2 site | – | inhibition | 18.4% |
| COc1ccc(F)cc1C(=O)NCc1ccc(-c2nn([C@@H](C)C(F)(F)F)c(N)c2C(N)=O)cc1 | Glycogen synthase kinase-3 beta (GSK3B, Homo sapiens, UniProt P49841) | target engagement, competitive chemoproteomics | human PBMCs | 0.01 µM | – | inhibition | 26.1% |
| CN(C)CCC=C1c2ccccc2C=Cc2ccccc21 | Voltage-dependent P/Q-type calcium channel subunit alpha-1A | ion current, antagonist | HEK293 | 10 µM | – | inhibition | 65% |
| Cc1cc(-c2ccnc3[nH]cc(F)c23)cc(F)c1[C@@]1(O)[C@H](C)CN(C(=O)CN)C[C@@H]1C | Phosphatidylinositol 3-kinase catalytic subunit type 3 (PIK3C3, Homo sapiens, UniProt Q8NEB9) | ATP probe binding, KiNativ, refers to: ATP site | HEK293T cell lysate | 0.1 µM | – | inhibition | -13.5% |
| Cc1ccc(C(=O)c2c(C=O)oc3cc(C#N)c(C#N)cc23)cc1 | UCHL1 | covalent, intact protein LC-MS | – | 12.5 µM | – | labelling | 32.9% |
| O=C(O)C(O)C(O)C(=O)O.c1cnc2cc3c(cc2n1)[C@@H]1CNC[C@H]3C1 | Voltage-dependent P/Q-type calcium channel subunit alpha-1A | ion current, antagonist | – | 30 µM | – | inhibition | 9% |
| CN1CCC(OC(=O)c2ccc(Br)cc2)CC1.Cl | Trypanosoma cruzi | reporter translation, Renilla luciferase mRNA translation | cell-free extract | 40 µM | relative to: DMSO | inhibition | -0.6% |
| O=C(Nc1cccc2c(=O)cc(-c3nnn[nH]3)oc12)c1ccc(OCCCCc2ccccc2)cc1 | Volume-regulated anion channel subunit LRRC8C, part LRRC8A IL1 chimera (LRRC8C, Homo sapiens, UniProt Q8TDW0, Y126F) | ion current, inhibitor, whole-cell patch clamp | HCT LRRC8-/- cells | 0.1 µM, +100 mV | – | inhibition | 17.8% and 37.8% and 13% and 31.4% and 16.7% |
| [2H]c1cc(C)c(NC(=O)c2cnc(Nc3cc(N4CCCCC4)nc(C)n3)s2)c(Cl)c1 | Platelet-derived growth factor receptor alpha (PDGFRA, Homo sapiens, UniProt P16234) | – | – | 0.001 µM | – | inhibition | > 50% |
| O=C(O)Cc1ccccc1Nc1c(Cl)cccc1Cl | Voltage-dependent P/Q-type calcium channel subunit alpha-1A | ion current, antagonist | HEK293 | 3 µM | – | inhibition | -4% |
